Measurements pooled from the literature.
Lines come from different studies, so protocols differ.
PARP1: Poly [ADP-ribose] polymerase 1 (PARP1, Homo sapiens, UniProt P09874)
CDK17: Cyclin-dependent kinase 17 (CDK17, Homo sapiens, UniProt Q00537)

Molecule	target	assay	system	setting	scale	inhibition [%]
O=C(O)c1ccc2ccccc2c1	Glutamate NMDA receptor; Grin1/Grin2a (Grin1/Grin2a, Rattus norvegicus, UniProt P35439+Q00959)	ion current, two-electrode voltage clamp		100 µM, oocytes		~30
O=C1NCC(c2ccccn2)C(=O)c2cc(Cl)c(Cl)cc21 (racemic)	PARP1	enzyme activity, inhibitor		10 µM		0
Cc1cc(NC(=O)c2cccc(NC(=O)/C=C/CN(C)C)c2)ccc1Nc1nccc(-c2cccnc2)n1	DNA-dependent protein kinase catalytic subunit (PRKDC, Homo sapiens, UniProt P78527)	ATP-biotin probe labeling, KiNativ	A-375	1 µM, 3 h, second of two sites		10.5
CC(C)(C)c1cnc(CSc2cnc(NC(=O)C3CCN(CC(=O)NCCOCCOCCOCCNc4cccc5c4C(=O)N(C4CCC(=O)NC4=O)C5=O)CC3)s2)o1 (centres unmarked)	CDK17	probe labeling, KiNativ live-cell profiling	MOLT-4	0.25 µM		18.7
C/C=C/C=C/C=C/CC/C=C/C=C/C(=O)NCC(C)C	Prostaglandin E2 receptor EP2 subtype (PTGER2, Homo sapiens, UniProt P43116)	antagonist, DiscoveRX gpcrMAX		concentration not given, negative means agonist activity		-52
CC1=C(/C=C/C(C)=C/C=C/C(C)=C/C(=O)C(Cl)Cl)C(C)(C)CCC1	Retinal dehydrogenase 2 (Gallus gallus, UniProt O93344)	enzyme activity, HPLC of retinoic acid	choroid cytosol (chick)	0.10 to 6 µM, 20 min preincubation, 37 °C, 4-day recovering eyes	relative to: vehicle	70 to 96
NS(=O)(=O)c1ccc(N2N=C(c3ccc(F)cc3O)CC2c2ccc(Br)cc2)cc1 (centres unmarked)	Carbonic anhydrase 9 (CA9, Homo sapiens, UniProt Q16790)	enzyme activity, inhibitor		1 mM		25
Cc1c(Nc2nccc3cc(CN4CC[C@@H](O)C4)cnc23)cccc1-c1cccc(-c2nc3cc(CN4CC[C@@H](C(=O)O)C4)cc(C#N)c3o2)c1C	Programmed cell death 1 ligand 1 (CD274, Homo sapiens, UniProt Q9NZQ7)	unoccupied cell-surface PD-L1	BALB/c nu/nu mice, MDA-MB-231 xenograft, tumour	150 mg/kg single dose, 30 min		> 50
lepirudin	Prothrombin (F2, Homo sapiens, UniProt P00734)			concentration not given		> 90
O=C(Nc1c(F)cccc1Cl)c1cnc(Nc2ccc(N3CCOCC3)cc2)nc1NCC1CCCO1 (centres unmarked)	Activated CDC42 kinase 1, Tyr284 phosphorylation (TNK2, Homo sapiens, UniProt Q07912)	Tyr284 autophosphorylation, inhibitor, immunoblotting	LAPC4	5 µM, 16 h, with: EGF	negative means increased phosphorylation	-32.6
O=C(O)CN1C(=O)c2ccc(Oc3ccc([N+](=O)[O-])cc3)cc2C1=O	Lysophosphatidic acid receptor 3 (LPAR3, Homo sapiens, UniProt Q9UBY5)	Ca2+ mobilization, antagonist		10 µM, with: LPA 200 nM		< 10
CN(C)C/C=C/C(=O)Nc1cccc(C(=O)Nc2ccc(Nc3nccc(-c4c(-c5ccccc5)nn5ccccc45)n3)cc2)c1	Phosphatidylinositol 3-kinase catalytic subunit type 3 (PIK3C3, Homo sapiens, UniProt Q8NEB9)	ATP-biotin probe labeling, KiNativ	A-375	1 µM, 3 h, first of two sites		8.9
c1cnc(NCCCn2ccnc2)cn1	Fe-SOD (Leishmania braziliensis)		Leishmania braziliensis	concentration not given, maximum over tested range		~100
O=C1CCCc2ccccc2N1	PARP1	enzyme activity, inhibitor		10 µM		2
CC(CN(C)C)C(Oc1cccc2ccccc12)c1cccs1 (centres unmarked)	Voltage-gated potassium channel, KQT; KCNQ2(Kv7.2)/KCNQ3(Kv7.3) (KCNQ3/KCNQ2, Homo sapiens, UniProt O43525+O43526)	steady-state current, perforated patch clamp	HEK293	10 µM, -30 mV		~55
Cc1ccc(-n2sc(=O)n(Cc3ccc(F)cc3)c2=O)cc1	Regulator of G-protein signaling 8 (Homo sapiens, UniProt P57771)	Gα binding, irreversible inhibitor, FCPIA after washing		20 µM, over 30 min, with: Gαo		~50
O=C1CCCc2c(O)cccc2N1	PARP1	enzyme activity, inhibitor		10 µM		> 30
CC(C)(C)c1cnc(CSc2cnc(NC(=O)C3CCNCC3)s2)o1	CDK17	probe labeling, KiNativ live-cell profiling	MOLT-4 CRBN knockout	0.25 µM		76.4
O=C1NCC(c2ccccc2)C(O)c2ccccc21 (racemic)	PARP1	enzyme activity, inhibitor		10 µM		3
CN(C)c1ccc(C(=C2C=CC(=[N+](C)C)C=C2)c2ccc(N(C)C)cc2)cc1	Cell division cycle 7-related protein kinase, with DBF4 (CDC7, Homo sapiens, UniProt O00311)	kinase activity, scintillation proximity		10 µM, with: Dbf4		49
